Published values gathered from unrelated publications.
Each line is one published result; not all experiments were run side by side. “And” joins repeats or separate records; there may be more than shown. ± gives the spread as reported.

With `Cc1ccccc1C(c1c[nH]c(=O)[nH]c1=O)c1c[nH]c(=O)[nH]c1=O` the inhibition was 78% (HIV-1 subtype C; p24 antigen production, p24 ELISA; 500 µg/mL).
Under “log2 fold change”, `Cn1ncc2cc(-c3cncc(Cl)c3N3CCC4(CCNC4=O)CC3)ccc21` is recorded as 2.91 (LS174T; gene expression, microarray, refers to: KRT17 mRNA; concentration not given, 4 h; relative to: untreated cells).
The translation activity of `CCN(Cc1ccc(C#CCCO)cc1)CC1CCCN(CCc2cccc(F)c2)C1` (stereo not shown) is reported as 145% and 131% (Trypanosoma cruzi; reporter mRNA translation, inhibitor, refers to: Renilla luciferase mRNA; cell-free extract; concentration not given, test 1; relative to: positive over negative control).
`C=C(NC(=O)c1csc(-c2nc3c(cc2O)-c2nc(cs2)C(=O)NC(C(C)O)C(=O)NC(=C(C)OC)c2nc(cs2)C(=O)NC2c4nc(cs4)C(=O)NC(COC(=O)c4c5c6c(cccc6n4O)COC(=O)C(OC4CC(C)(O)C(N(C)C)C(C)O4)C2OC5)c2nc-3cs2)n1)C(N)=O` (stereo not shown) has a bacterial load of 3.92 log CFU/g (Streptococcus pneumoniae; -4, immunocompromised mice, lung infection, lung; 8 mg/kg/day three times daily, 24 h post-dose).
The fold regulation of `CCN(CC)CC(=O)Nc1cccc(-n2cc(-c3ccc4ccc(-c5cn(-c6cccc(NC(=O)CN(CC)CC)c6)nn5)cc4c3)nn2)c1` is reported as 1.4 (RCC4; PCR angiogenesis array, refers to: CXCL10; 5 x IC50, 2 h, normoxia; relative to: untreated).
`COC1CN([C@H]2CC[C@H]([C@@]3(C)Oc4c(Cl)cc(C(=O)NCc5c(SC)cc(C)[nH]c5=O)c(C)c4O3)CC2)C1`: “log2 fold change” 0.486 (RNA-seq, refers to: EIF5A2 mouse homolog; mouse, HT-1376 xenograft, whole blood; dose not given; relative to: vehicle).
`CN1CCCNC(=O)c2cccc(c2)C(=O)NCCCN(C)CCCNc2cccc3c2C(=O)c2cccc(c2C3=O)NCCC1` — result for “log2 fold change”: 0.555 (SAS; RNA-Seq, refers to: UQCC1 mRNA; 1 µM, 6 h; relative to: untreated cells).
`C=CC(=O)Nc1cccc(Cn2ncc3cnc(Nc4cnn(CCOC)c4)nc32)c1`: “percent of control” 86% (BUB1 human; binding, KINOMEscan; 100 nM; lower = stronger binding).
With `CNS(=O)(=O)Nc1nccc(Cc2c(C)c3ccc(Oc4ncccc4F)cc3oc2=O)c1F` the IC50 was 20.2 nM (KYSE-410; cell viability; 7 days).
For `CC1=C[C@@H](O/C=C2/C(=O)O[C@H]3c4ccccc4C[C@@H]23)OC1=O`, the maximum germination was 10% (Arabidopsis thaliana; htl-3 mutant).
`COc1cc(O)ccc1CCC(c1ccc(O)cc1)c1cc2c(c(C)c1O)OC(c1ccc(O)cc1)CC2` (mixture of isomers) — result for “arachidonic acid level”: 87900 ± 9780 pg/mL (human blood; 0.3 µM, with: A23187).
`CC(=O)[O-].O.O.O.O.[Ni+2].[O-]c1ccc(Br)cc1C=NCCN1CCOCC1` gave an inhibition of 30.2% (DPPH radical scavenging; 120 µM).
Under “log2 fold change”, `Cc1ncsc1-c1ccc(C(C)NC(=O)C2CC(O)CN2C(=O)C(NC(=O)CCCCCCCCCCN2CCCC(Nc3ncc(Cl)c(Nc4ccccc4S(=O)(=O)C(C)C)n3)C2)C(C)(C)C)cc1` (stereo not shown) is recorded as -1.88 (22Rv1; RNA-seq, refers to: PSD4 mRNA; concentration not given; relative to: DMSO).
With `Cc1cc(Cl)c(OCCOCCN2CCN(C)CC2)c(Br)c1.O=C(O)C(=O)O` the translation activity was 118% (Trypanosoma cruzi; reporter mRNA translation, inhibitor, refers to: Renilla luciferase mRNA; cell-free extract; concentration not given, test 3; relative to: positive over negative control).
With `Nc1ncc(-c2cc(-c3cnn(CC(F)(F)F)c3)ncc2F)nc1C(=O)NC1CNCC(F)C1` (stereo not shown) the remaining binding was 92% (PKAC-alpha; KINOMEscan competition binding; 1 µM; relative to: DMSO control).
`CC(C)c1ccc(N(C)c2ccc3c(c2)OCC[C@H]3CNc2cnccc2C(=O)O)cc1` has an IC50 of 66.8 nM (Hs 294T; cell growth or viability, ATP luminescence; 7 days).

Some of these lines once more:
`COC1CN([C@H]2CC[C@H]([C@@]3(C)Oc4c(Cl)cc(C(=O)NCc5c(SC)cc(C)[nH]c5=O)c(C)c4O3)CC2)C1`: “log2 fold change” 0.486 (RNA-seq, refers to: EIF5A2 mouse homolog; mouse, HT-1376 xenograft, whole blood; dose not given; relative to: vehicle).
